Results gathered from unrelated publications.
Every numbered part comes from another study and shows a few of its results, in no order. Values joined by “and” are separate records of one study, mostly repeats; a detail may differ.
Sequence of UniProt Q9Y243 (whole entry, looked up): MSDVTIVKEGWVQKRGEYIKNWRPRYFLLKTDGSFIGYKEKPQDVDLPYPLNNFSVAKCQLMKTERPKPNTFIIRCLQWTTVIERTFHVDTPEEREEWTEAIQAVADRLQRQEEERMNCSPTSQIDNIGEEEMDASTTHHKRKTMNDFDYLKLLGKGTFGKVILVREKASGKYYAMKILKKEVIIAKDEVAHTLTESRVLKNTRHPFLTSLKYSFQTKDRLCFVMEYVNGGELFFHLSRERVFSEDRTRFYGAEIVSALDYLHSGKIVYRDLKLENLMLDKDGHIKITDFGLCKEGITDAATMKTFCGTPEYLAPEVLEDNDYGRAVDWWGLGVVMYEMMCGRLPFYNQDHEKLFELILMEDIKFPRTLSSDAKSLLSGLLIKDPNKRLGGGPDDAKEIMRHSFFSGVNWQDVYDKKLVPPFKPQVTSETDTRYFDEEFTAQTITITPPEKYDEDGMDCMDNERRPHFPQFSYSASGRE
Sequence of UniProt P31751 (whole entry, looked up): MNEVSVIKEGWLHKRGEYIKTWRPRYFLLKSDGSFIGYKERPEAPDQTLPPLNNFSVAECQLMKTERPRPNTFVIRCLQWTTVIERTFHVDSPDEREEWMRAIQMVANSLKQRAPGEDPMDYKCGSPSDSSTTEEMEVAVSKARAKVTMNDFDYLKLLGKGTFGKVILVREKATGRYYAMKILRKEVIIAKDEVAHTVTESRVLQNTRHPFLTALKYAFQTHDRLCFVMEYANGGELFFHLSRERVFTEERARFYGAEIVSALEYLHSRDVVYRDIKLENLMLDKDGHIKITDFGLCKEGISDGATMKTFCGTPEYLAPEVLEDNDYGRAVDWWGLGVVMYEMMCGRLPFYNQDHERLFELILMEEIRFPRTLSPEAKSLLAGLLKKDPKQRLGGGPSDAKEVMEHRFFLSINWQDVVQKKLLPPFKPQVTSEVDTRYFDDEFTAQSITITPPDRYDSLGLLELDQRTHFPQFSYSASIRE
Sequence of UniProt P49840 (whole entry, looked up): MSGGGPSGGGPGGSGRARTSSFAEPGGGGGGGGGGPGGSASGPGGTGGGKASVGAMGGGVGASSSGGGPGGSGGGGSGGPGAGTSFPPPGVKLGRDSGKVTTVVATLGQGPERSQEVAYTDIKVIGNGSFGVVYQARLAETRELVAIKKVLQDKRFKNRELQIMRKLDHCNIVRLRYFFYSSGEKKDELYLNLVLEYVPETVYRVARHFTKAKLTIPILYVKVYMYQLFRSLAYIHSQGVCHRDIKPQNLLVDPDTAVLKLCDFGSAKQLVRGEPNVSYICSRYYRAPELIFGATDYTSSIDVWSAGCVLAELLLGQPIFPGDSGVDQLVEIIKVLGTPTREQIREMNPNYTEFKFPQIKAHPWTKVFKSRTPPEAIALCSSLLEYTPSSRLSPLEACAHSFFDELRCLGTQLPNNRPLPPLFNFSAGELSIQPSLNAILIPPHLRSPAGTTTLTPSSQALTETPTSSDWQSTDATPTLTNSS
Sequence of UniProt Q13177 (whole entry, looked up): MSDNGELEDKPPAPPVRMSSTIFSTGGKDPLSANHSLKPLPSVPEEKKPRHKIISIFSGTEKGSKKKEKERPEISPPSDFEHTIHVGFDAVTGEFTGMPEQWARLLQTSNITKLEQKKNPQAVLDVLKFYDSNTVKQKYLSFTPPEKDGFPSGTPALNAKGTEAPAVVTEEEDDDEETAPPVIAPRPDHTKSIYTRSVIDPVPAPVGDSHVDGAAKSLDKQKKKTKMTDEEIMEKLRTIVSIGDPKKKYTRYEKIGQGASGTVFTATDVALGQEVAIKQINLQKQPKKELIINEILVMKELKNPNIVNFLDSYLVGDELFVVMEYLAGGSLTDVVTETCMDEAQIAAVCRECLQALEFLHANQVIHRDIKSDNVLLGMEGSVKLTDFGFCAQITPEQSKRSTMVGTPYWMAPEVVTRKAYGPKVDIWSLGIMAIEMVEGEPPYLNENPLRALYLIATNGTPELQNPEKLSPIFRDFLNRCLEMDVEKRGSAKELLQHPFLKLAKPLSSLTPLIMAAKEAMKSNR
Sequence of UniProt P34947 (whole entry, looked up): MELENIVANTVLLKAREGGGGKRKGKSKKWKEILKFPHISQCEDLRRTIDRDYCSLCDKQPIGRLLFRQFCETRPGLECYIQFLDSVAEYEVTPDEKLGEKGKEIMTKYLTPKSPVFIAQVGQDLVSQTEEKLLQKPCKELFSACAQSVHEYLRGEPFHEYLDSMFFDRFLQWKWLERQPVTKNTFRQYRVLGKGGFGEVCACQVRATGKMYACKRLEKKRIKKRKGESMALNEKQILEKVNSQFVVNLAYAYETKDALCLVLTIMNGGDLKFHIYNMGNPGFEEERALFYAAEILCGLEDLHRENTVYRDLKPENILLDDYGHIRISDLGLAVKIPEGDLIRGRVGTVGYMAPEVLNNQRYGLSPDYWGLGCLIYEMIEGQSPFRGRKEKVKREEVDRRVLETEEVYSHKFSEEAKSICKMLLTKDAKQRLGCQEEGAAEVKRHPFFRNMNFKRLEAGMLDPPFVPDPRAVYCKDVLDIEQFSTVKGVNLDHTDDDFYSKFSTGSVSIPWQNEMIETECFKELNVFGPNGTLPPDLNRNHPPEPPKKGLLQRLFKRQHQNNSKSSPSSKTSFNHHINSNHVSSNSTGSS
Sequence of UniProt P31749 (whole entry, looked up): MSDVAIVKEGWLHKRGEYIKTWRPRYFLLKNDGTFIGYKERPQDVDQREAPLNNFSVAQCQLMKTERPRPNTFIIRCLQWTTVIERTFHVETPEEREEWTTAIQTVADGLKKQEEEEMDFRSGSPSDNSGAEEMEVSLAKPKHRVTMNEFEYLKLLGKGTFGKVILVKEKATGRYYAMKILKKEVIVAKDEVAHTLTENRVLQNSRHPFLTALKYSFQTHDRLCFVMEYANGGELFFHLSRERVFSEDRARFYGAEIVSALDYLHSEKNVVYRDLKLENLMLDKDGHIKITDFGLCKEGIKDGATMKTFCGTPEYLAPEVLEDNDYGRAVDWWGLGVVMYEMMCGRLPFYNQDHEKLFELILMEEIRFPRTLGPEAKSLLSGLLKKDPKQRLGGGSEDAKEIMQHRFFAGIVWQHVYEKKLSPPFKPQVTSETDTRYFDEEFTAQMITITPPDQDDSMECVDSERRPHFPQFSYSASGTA

Block 1 — Structure (SMILES): CC(C)(C)c1cc(C=C(C#N)C#N)cc(Br)c1O; observed: enzyme activity; action: inhibitor; tested at: 0.5 µM
target	relative to	remaining activity
G protein-coupled receptor kinase 5 (GRK5, Homo sapiens, UniProt P34947)	–	108%
Serine/threonine-protein kinase PAK 2 (PAK2, Homo sapiens, UniProt Q13177)	control	96.5%
Glycogen synthase kinase-3 alpha (GSK3A, Homo sapiens, UniProt P49840)	control	104%

Block 2
SMILES: C=CC(=O)Nc1ccc2[nH]c(=O)n(C3CCN(Cc4ccc(-c5ccc6c(c5)NC(=O)CO6)cc4)CC3)c2c1
target	observed	method	matrix	EC50
RAC-gamma serine/threonine-protein kinase (AKT3, Homo sapiens, UniProt Q9Y243)	target engagement	NanoBRET	live cells	10.1 µM and 7.7 µM
RAC-alpha serine/threonine-protein kinase (AKT1, Homo sapiens, UniProt P31749)	target engagement in cells	BRET	–	3.5 µM
RAC-beta serine/threonine-protein kinase (AKT2, Homo sapiens, UniProt P31751)	target engagement	NanoBRET	live cells	5.76 µM and 6.05 µM and 2.62 µM

Other studies, line by line
Structure (SMILES)	tested on	observed	method	tested at	setting	endpoint	value
CC[C@@H](C)c1nc2cc(Nc3ccnc4ccc(S(=O)(=O)C(C)C)cc34)ccc2s1.Cl	L929 RIPK3-/- reexpressing RIPK3 K51A	–	CCK-8	25 µM	–	survival	64.2% and 66.8% and 108% and 62.8%
CCCCCCCCCOc1ccc2[nH]cc(CCN)c2c1	Sarcocystis neurona	parasite growth	–	concentration not given	secondary screen	inhibition	-12.7%

Excerpt of the above (block 2):
target	observed	method	matrix	EC50
RAC-alpha serine/threonine-protein kinase (AKT1, Homo sapiens, UniProt P31749)	target engagement in cells	BRET	–	3.5 µM
